Assay results gathered from unrelated publications.
Lines come from different studies, so protocols differ. “And” joins repeats or separate records; there may be more than shown. ± marks the error that the study gave.

COC(=O)[C@@]1(C)C=C(C(=O)Nc2cccc(C(=O)Nc3ccc(Nc4nccc(-c5cccnc5)n4)c(C)c3)c2)C(=O)CC1  half-life (Wistar rat male, blood plasma; 1 µM): 0.47 h
OC1(C(F)(F)F)CCN(c2nc(Nc3ccnc(C(F)(F)F)c3)nc(-c3cccc(C(F)(F)F)n3)n2)C1 (centres unmarked)  half-life (Sprague-Dawley rat, both sexes, plasma; oral gavage, 5 mg/kg): 15 ± 3.08 h
COc1ccc([C@@H]2CC(=O)c3c(O)cc(O[C@@H]4O[C@H](CO)[C@@H](O)[C@H](O)[C@H]4O[C@@H]4O[C@@H](C)[C@H](O)[C@@H](O)[C@H]4O)cc3O2)cc1O  half-life (LC-MS/MS; Sprague-Dawley rat, male, obese, plasma; oral, 100 mg/kg): 17.6 ± 5.67 h
C=C(NC(=O)c1csc(-c2nc3c(cc2O)-c2nc(cs2)C(=O)NC(C(C)O)C(=O)NC(=C(C)OC)c2nc(cs2)C(=O)NC2c4nc(cs4)C(=O)NC(COC(=O)c4c5c6c(cccc6n4O)COC(=O)C(OC4CC(C)(O)C(N(C)C)C(C)O4)C2OC5)c2nc-3cs2)n1)C(N)=O (centres unmarked)  half-life (Sprague-Dawley rat, female, plasma; intravenous infusion, 6 mg/kg, multiple doses, day 1): 4.21 h
Cc1nc2cccc(OCC(C)(C)C(=O)NC(C)C)c2c(N)c1C(=O)O.O=P(O)(O)O  half-life (male Sprague-Dawley rat, plasma; oral, 30 mg/kg): 1.34 h
CC[C@H](C)[C@H](NC(=O)[C@H](Cc1ccc(O)cc1)NC(=O)[C@@H](NC(=O)[C@H](CCCNC(=N)N)NC(=O)[C@@H](N)CC(=O)O)C(C)C)C(=O)N[C@@H](Cc1c[nH]cn1)C(=O)N1CCC[C@H]1C(=O)O  half-life (LC-MS/MS; Sprague-Dawley rats, both sexes, plasma; subcutaneous, 10 mg/kg/day, day 27): 0.267 h
C=C1C[C@]2(C(=O)OC)C=C(C(=O)Nc3cccc(C(=O)Nc4ccc(Nc5nccc(-c6cccnc6)n5)c(C)c4)c3)C(=O)[C@H]1C2  half-life (Wistar rat male, blood plasma; 10 µM): 0.0406 h
N#Cc1ccnc(N2C(=O)CC[C@H]2C(=O)N(c2cc(F)cc(F)c2)[C@H](C(=O)NC2CC(F)(F)C2)c2ccccc2Cl)c1 (stereo in doubt)  half-life (Sprague-Dawley rat, plasma): 9.9 h
O=C(O)/C=C\c1cc2ccoc2cc1O[C@@H]1O[C@H](CO)[C@@H](O)[C@H](O)[C@H]1O  half-life (rat, plasma; oral, 500 mg/kg Eu + 217 mg/kg Pc extract, dosed as combined Eu and Pc extracts): 2.59 ± 0.51 h
COC(=O)[C@@]1(C(C)C)C=C(C(=O)Nc2cccc(C(=O)Nc3ccc(Nc4nccc(-c5cccnc5)n4)c(C)c3)c2)C(=O)CC1  half-life (rat, blood plasma; 1 µM): 4.81 h and 4.19 h
Cn1cnc([N+](=O)[O-])c1Sc1ccccc1C(=O)NCCC(N)=O  half-life (LC-UV/MS; Sprague-Dawley rat, whole blood; 10 µM, 37 °C): 0.21 h
CC[C@H](C)[C@@H](C(=O)N[C@@H](CC(C)C)C(=O)N[C@@H](CO)C(=O)N[C@@H](CO)C(=O)N[C@H](C(=O)N[C@@H](CCC(=O)O)C(=O)N[C@H](C(=O)NCC(=O)N[C@@H](CO)C(=O)N[C@@H](CC(N)=O)C(=O)N[C@H](C(=O)N1C[C@H](O)C[C@H]1C(N)=O)[C@@H](C)O)C(C)C)[C@@H](C)O)N(C)C(=O)[C@H](C)NC(=O)CN(C)C(=O)[C@H](Cc1ccccc1)NC(=O)[C@H](CO)NC(=O)[C@H](CO)NC(=O)[C@H](CCCNC(=N)N)NC(=O)[C@H](CCC(N)=O)NC(=O)[C@H](CC(C)C)NC(=O)[C@H](Cc1ccccc1)NC(=O)[C@H](CCCC(=O)O)NC(=O)[C@H](C)NC(=O)[C@H](CC(C)C)NC(=O)[C@H](CCCNC(=N)N)NC(=O)[C@H](CCC(=O)O)NC(=O)[C@@H](NC(=O)[C@H](C)NC(=O)[C@@H]1CCCCNC(=O)C[C@H](NC(=O)[C@H](CCCNC(=N)N)NC(=O)CC[C@H](NC(=O)CCCCCCCCCCCCCCCCCCC(=O)O)C(=O)O)C(=O)NCC(=O)N[C@@H]([C@@H](C)O)C(=O)N[C@@H](C)C(=O)N[C@@H]([C@@H](C)O)C(=O)N1)[C@@H](C)O  half-life (Sprague-Dawley rat, lean male, plasma; subcutaneous, 30 nmol/kg single dose, vehicle pH 7.0): > 30 h
O=C(NS(=O)(=O)c1cccs1)c1cc2ccccc2n1Cc1ccc(Br)c2ccccc12  half-life (Sprague-Dawley rat, male, plasma; oral, 20 mg/kg): 1.48 h
Nc1nc2cnc(C(=O)N3CCOC[C@@H]3c3ccc(C(F)(F)F)cc3)cc2c2c1COC2  half-life (rat; 2 mg/kg): 0.7 h
CCC1(CC)CC(=O)N(C2CCOc3ccc(C(=O)NC4CC(C)(C)Oc5ccccc54)cc32)C(=N)N1 (centres unmarked)  half-life (Wistar Han rat male, plasma): 5.9 ± 2.7 h
CCCC[C@H](OC(C)=O)c1ccccc1C(=O)O  half-life (Sprague-Dawley rat, both sexes, whole blood; intravenous, 5 mg/kg, day 7): 4.9 ± 1.5 h
Cl.NCc1ccc2c(c1)CN(C1CCC(=O)NC1=O)C2=O (centres unmarked)  half-life (male Sprague-Dawley rat, whole blood): > 3 h

Repeated from above:
C=C(NC(=O)c1csc(-c2nc3c(cc2O)-c2nc(cs2)C(=O)NC(C(C)O)C(=O)NC(=C(C)OC)c2nc(cs2)C(=O)NC2c4nc(cs4)C(=O)NC(COC(=O)c4c5c6c(cccc6n4O)COC(=O)C(OC4CC(C)(O)C(N(C)C)C(C)O4)C2OC5)c2nc-3cs2)n1)C(N)=O (centres unmarked)  half-life (Sprague-Dawley rat, female, plasma; intravenous infusion, 6 mg/kg, multiple doses, day 1): 4.21 h
Cc1nc2cccc(OCC(C)(C)C(=O)NC(C)C)c2c(N)c1C(=O)O.O=P(O)(O)O  half-life (male Sprague-Dawley rat, plasma; oral, 30 mg/kg): 1.34 h
